Published values pooled from the literature.
Parts stem from different laboratories: compare values within a part only.
Sequence of UniProt P49840 (whole entry, looked up): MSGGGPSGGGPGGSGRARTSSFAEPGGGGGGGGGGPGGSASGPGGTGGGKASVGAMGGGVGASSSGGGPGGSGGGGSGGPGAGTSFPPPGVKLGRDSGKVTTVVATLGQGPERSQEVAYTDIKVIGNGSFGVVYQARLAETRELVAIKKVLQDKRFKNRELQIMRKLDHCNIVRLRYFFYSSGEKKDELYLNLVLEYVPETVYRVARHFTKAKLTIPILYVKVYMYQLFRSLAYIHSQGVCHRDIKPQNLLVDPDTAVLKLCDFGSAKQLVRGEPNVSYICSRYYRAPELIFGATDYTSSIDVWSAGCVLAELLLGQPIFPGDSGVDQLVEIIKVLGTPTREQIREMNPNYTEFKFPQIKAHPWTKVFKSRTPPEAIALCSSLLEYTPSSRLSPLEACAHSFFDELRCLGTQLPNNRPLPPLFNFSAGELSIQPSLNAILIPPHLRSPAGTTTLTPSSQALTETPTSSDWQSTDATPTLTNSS
Sequence of UniProt Q00532 (whole entry, looked up): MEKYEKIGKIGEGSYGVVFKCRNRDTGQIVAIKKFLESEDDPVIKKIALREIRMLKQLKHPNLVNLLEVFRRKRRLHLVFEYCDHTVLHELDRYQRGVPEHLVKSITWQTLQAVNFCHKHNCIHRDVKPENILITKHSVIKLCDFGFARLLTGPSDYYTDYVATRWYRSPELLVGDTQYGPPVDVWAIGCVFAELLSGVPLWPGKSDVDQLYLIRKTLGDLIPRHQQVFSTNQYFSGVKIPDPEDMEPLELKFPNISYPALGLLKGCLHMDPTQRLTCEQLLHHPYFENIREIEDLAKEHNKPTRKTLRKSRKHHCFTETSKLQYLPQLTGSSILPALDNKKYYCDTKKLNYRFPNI
Sequence of UniProt P43403 (whole entry, looked up): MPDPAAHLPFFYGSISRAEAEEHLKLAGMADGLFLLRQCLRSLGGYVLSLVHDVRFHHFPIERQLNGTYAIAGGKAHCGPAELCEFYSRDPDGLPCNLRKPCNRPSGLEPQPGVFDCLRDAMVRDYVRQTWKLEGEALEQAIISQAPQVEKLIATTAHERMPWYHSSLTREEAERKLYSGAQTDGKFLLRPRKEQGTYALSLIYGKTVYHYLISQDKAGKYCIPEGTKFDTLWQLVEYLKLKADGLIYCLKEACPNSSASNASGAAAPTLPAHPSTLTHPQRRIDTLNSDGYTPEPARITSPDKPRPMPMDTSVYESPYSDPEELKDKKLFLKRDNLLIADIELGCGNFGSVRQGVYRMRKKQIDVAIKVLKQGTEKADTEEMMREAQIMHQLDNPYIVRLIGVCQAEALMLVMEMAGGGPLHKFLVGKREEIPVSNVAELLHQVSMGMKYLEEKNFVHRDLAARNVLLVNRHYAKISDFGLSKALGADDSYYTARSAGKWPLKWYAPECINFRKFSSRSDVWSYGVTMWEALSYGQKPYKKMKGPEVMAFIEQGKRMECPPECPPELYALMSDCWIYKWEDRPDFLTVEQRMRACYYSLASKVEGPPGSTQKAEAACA

Set 1
Structure (SMILES): CC(C)n1cnc(-c2ccc(F)cc2)c1-c1ncc(C(=O)Nc2ccc(N3CCN(C)CC3)cc2)[nH]1
Technique: Phase 2a trial
Species: idiopathic pulmonary fibrosis patients
For refers to: weight increased; 60 mg once daily, grade 5 maximum intensity: “patients with adverse events” read 0%.
refers to: weight increased; dose not given, grade 4 maximum intensity, all arms — “patients with adverse events”: 0%.
It gave 0% for “patients with adverse events” (refers to: chest discomfort; 60 mg once daily, grade 5 maximum intensity).

Set 2
Target: SRSF protein kinase 2 (SRPK2, Homo sapiens, UniProt P78362)
Sequence of UniProt P78362 (whole entry, looked up): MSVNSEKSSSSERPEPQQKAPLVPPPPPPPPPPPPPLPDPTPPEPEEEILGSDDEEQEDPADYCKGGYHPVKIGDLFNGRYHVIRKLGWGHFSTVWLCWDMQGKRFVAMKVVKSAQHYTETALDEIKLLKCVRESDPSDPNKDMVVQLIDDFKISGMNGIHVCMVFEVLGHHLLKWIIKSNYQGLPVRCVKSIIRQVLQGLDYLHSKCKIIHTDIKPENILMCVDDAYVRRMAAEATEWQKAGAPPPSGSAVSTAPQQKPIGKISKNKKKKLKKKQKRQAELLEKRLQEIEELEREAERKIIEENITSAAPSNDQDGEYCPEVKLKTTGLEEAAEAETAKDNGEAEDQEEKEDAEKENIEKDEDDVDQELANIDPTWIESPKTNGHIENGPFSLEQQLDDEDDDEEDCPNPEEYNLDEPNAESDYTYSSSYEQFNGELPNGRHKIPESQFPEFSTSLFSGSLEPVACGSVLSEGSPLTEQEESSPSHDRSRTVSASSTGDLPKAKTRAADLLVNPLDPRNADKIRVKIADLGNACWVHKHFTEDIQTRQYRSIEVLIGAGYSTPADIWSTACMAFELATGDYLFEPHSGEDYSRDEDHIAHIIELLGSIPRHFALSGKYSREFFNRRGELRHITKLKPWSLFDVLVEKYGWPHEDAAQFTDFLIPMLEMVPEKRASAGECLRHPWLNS
Read-out: enzyme activity
Mode: inhibitor
Tested at: 0.5 µM
Baseline: control
The remaining activity of `Cc1cccc(-c2[nH]c(C(C)(C)C)nc2-c2ccc3c(c2)OCO3)n1` is reported as 95.8%.
`NCCNc1ncc(C(N)=O)c(Nc2cccc(C(F)(F)F)c2)n1` has a remaining activity of 97.6%.
For `CN(C)c1ccc(C=C2C(=O)Nc3ccccc32)cc1`, the remaining activity was 100%.
`CNC(=O)c1cc(Oc2ccc(NC(=O)Nc3ccc(Cl)c(C(F)(F)F)c3)cc2)ccn1` gave a remaining activity of 102%.
`OCC(O)CCON=C1C(c2c(O)[nH]c3ccccc23)=Nc2ccccc21` (stereo not shown) gave a remaining activity of 86.5%.
`COc1ccc(CNC(=O)Nc2ncc([N+](=O)[O-])s2)cc1` has a remaining activity of 99.6%.
For `Cn1c2ccccc2c2c3c(c4c5ccccc5n(CCC#N)c4c21)CNC3=O`, the remaining activity was 95%.
For `N#CC(C#N)=C(N)/C(C#N)=C/c1ccc(O)cc1`, the remaining activity was 88.8%.
`Nc1[nH]nc2nc3ccccc3nc12` has a remaining activity of 95.9%.
`CC(C)[C@H](CO)Nc1nc(Nc2cc(N)cc(Cl)c2)c2ncn(C(C)C)c2n1` has a remaining activity of 31%.
The remaining activity of `Oc1ccc(-c2nc(-c3ccncc3)c(-c3ccc(F)cc3)[nH]2)cc1` is reported as 102%.
For `O=C(CCCc1ccc(-c2ccccc2F)cc1)Nc1ccc(O)cc1`, the remaining activity was 94.3%.
`CCOC(=O)c1c(C)[nH]c(/C=C2\C(=O)Nc3ccccc32)c1C` has a remaining activity of 92.3%.
`O=C1NC(=O)C(c2cn(CCCn3ccnc3)c3ccccc23)=C1Nc1ccccc1` gave a remaining activity of 96.2%.
With `O=C(O)c1ccc2c3c1cccc3c(=O)n1c3ccccc3nc21` the remaining activity was 89.3%.

Set 3
Compound: CS(=O)(=O)c1cc(C2(NC(=O)c3cncc4c3cnn4-c3ccc(F)cc3)CC2)ccn1
Read-out: cell-free assay
Technique: competition with immobilised ligand
Tested at: 1 µM
For FLT3 (Homo sapiens, UniProt P36888, R834Q): remaining binding read 75%.
It gave 71% for remaining binding (ZAP70 (Homo sapiens, UniProt P43403)).
It gave 70% for remaining binding (GSK3A (Homo sapiens, UniProt P49840)).
The remaining binding was 69% (CDKL1 (Homo sapiens, UniProt Q00532)).
The remaining binding was 74% (DYRK1B (Homo sapiens, UniProt Q9Y463)).

Set 4
Species: human
Medium: microsomes or S9
Tested at: 2 µM
Time: 0.5 h
The remaining compound of `CON(C)C(=O)c1cc(C(C)C)nc2c1c(C)nn2C(C)(C)C` is reported as 9.54%.
With `COc1ccc([N+](=O)[O-])cc1C(=O)Nc1cc(C(F)(F)F)cc(C(F)(F)F)c1` the remaining compound was 81.3%.
For `CNC(=O)c1cc(Cl)cc(C)c1NC(=O)c1ncc2cccn2c1-c1cnccc1Br`, the remaining compound was 40.7%.
`COc1ccc(C)cc1NC(=O)c1cc2c(=O)n3cccc(C)c3nc2n1Cc1ccccc1` has a remaining compound of 34%.

Set 5
Cell line: HaCaT
Tested at: 100 µM
Time: 36 h
`O=C1OC(CN2CCOCC2)CN1/N=C/c1ccc([N+](=O)[O-])o1` (stereo not shown) gave a viability of 58.8%.
The viability of `Nc1nc(Cl)nc2c1ncn2[C@@H]1O[C@H](CO)[C@@H](O)[C@@H]1F` is reported as 45.8%.
`CN(C)c1ccc(C(=C2C=CC(=[N+](C)C)C=C2)c2ccc(N(C)C)cc2)cc1` gave a viability of 10.2%.
`O=C[C@H](O)[C@@H](O)[C@H](O)[C@H](O)CO` has a viability of 75.3%.

A few entries again (set 1):
refers to: weight increased; dose not given, grade 4 maximum intensity, all arms — “patients with adverse events”: 0%.
For refers to: weight increased; 60 mg once daily, grade 5 maximum intensity: “patients with adverse events” read 0%.
